Results of several laboratories.
Lines come from different studies, so protocols differ. “And” joins repeats or separate records; there may be more than shown. Numbers after ± are the reported error.
CYP2E1: Cytochrome P450 2E1 (CYP2E1, Homo sapiens, UniProt P05181)
Sequence of UniProt P05181 (whole entry, looked up): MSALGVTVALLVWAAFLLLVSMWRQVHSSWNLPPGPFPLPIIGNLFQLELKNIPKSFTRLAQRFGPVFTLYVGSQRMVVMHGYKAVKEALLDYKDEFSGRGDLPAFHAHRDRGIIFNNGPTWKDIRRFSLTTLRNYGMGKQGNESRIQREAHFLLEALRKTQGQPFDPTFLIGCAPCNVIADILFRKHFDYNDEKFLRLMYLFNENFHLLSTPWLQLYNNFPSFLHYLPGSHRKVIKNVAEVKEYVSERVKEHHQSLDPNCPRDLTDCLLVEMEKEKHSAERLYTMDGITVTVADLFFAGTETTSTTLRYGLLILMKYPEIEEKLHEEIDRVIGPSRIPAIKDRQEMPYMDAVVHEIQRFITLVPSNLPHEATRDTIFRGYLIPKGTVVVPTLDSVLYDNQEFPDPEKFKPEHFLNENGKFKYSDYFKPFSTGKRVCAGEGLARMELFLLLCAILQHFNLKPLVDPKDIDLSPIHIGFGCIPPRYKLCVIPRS
CYP2C9: Cytochrome P450 2C9 (CYP2C9, Homo sapiens, UniProt P11712)
Sequence of UniProt P11712 (whole entry, looked up): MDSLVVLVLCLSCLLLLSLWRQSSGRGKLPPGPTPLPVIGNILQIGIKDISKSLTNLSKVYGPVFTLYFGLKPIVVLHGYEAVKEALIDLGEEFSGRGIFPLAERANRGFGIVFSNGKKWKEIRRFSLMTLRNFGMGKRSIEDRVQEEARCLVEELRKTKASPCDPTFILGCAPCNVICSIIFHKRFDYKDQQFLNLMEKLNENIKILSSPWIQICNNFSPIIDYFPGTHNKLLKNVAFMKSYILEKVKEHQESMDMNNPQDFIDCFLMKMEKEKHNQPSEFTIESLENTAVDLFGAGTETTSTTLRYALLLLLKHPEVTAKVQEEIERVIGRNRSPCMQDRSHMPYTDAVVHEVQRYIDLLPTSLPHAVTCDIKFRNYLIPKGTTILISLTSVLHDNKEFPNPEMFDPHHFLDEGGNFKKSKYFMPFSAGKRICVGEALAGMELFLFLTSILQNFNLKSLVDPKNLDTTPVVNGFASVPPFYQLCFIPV
SLC22A8: Organic anion transporter 3 (SLC22A8, Homo sapiens, UniProt Q8TCC7)
Sequence of UniProt Q8TCC7 (whole entry, looked up): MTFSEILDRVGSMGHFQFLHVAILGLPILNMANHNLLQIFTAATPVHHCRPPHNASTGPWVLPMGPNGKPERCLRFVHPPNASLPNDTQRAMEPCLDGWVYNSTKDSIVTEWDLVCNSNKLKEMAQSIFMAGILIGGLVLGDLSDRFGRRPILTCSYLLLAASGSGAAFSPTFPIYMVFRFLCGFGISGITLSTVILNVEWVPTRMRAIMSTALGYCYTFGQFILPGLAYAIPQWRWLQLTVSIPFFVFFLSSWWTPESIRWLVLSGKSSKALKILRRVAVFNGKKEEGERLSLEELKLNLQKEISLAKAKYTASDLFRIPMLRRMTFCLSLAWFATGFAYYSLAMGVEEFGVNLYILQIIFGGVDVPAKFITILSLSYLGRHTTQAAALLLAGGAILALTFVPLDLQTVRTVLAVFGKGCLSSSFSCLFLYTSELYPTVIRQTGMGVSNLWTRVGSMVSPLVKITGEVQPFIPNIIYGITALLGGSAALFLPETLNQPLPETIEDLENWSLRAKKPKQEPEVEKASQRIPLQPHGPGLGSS
SLC22A2: Solute carrier family 22 member 2 (SLC22A2, Homo sapiens, UniProt O15244)
Sequence of UniProt O15244 (whole entry, looked up): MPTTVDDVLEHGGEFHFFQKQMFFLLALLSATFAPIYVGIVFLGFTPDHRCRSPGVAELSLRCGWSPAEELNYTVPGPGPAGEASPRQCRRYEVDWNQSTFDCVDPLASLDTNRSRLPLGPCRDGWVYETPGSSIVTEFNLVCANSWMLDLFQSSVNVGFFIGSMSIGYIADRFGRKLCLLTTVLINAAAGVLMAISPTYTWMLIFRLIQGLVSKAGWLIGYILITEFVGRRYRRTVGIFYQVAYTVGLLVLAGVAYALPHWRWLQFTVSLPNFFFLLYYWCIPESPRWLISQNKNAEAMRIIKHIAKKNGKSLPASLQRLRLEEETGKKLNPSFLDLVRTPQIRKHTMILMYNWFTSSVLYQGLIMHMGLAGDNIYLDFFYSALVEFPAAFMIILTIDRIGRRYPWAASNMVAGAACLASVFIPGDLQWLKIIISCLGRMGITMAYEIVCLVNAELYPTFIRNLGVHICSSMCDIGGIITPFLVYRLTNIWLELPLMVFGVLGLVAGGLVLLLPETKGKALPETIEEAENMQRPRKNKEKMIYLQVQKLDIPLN
Abcg2: Broad substrate specificity ATP-binding cassette transporter ABCG2 (Abcg2, Rattus norvegicus, UniProt Q80W57)
Sequence of UniProt O15245 (whole entry, looked up): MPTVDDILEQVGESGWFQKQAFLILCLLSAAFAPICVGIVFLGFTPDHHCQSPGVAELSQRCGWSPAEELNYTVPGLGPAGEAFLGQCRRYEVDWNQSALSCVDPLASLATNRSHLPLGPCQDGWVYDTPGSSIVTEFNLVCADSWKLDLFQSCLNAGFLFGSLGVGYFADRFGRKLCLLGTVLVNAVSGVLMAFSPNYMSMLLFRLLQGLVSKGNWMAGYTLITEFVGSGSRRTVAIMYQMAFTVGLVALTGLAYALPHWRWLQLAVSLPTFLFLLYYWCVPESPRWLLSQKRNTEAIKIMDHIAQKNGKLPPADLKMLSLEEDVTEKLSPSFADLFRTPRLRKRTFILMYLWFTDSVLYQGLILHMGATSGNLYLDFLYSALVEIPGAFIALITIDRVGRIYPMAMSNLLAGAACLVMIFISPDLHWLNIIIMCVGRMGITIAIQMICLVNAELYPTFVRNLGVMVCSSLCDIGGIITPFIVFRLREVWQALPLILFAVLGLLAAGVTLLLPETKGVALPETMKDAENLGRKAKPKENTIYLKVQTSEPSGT
Sequence of UniProt Q80W57 (whole entry, looked up): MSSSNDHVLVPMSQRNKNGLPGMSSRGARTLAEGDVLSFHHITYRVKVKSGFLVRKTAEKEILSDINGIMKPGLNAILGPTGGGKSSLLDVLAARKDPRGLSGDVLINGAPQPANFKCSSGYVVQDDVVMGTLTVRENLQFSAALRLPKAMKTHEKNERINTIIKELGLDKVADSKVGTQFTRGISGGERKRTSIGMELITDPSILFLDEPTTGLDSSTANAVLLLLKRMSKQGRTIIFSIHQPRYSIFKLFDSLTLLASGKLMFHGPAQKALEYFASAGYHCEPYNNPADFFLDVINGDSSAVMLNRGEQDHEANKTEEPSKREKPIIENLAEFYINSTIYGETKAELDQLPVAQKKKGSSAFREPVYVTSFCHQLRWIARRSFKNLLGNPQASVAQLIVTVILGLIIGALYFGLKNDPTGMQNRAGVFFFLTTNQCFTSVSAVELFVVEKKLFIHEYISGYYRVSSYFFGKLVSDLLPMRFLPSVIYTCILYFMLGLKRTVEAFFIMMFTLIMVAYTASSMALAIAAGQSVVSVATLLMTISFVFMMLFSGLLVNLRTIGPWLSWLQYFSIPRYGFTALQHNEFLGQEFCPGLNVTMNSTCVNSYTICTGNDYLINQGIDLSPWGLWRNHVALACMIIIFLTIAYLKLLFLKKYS
Sequence of UniProt Q00519 (whole entry, looked up): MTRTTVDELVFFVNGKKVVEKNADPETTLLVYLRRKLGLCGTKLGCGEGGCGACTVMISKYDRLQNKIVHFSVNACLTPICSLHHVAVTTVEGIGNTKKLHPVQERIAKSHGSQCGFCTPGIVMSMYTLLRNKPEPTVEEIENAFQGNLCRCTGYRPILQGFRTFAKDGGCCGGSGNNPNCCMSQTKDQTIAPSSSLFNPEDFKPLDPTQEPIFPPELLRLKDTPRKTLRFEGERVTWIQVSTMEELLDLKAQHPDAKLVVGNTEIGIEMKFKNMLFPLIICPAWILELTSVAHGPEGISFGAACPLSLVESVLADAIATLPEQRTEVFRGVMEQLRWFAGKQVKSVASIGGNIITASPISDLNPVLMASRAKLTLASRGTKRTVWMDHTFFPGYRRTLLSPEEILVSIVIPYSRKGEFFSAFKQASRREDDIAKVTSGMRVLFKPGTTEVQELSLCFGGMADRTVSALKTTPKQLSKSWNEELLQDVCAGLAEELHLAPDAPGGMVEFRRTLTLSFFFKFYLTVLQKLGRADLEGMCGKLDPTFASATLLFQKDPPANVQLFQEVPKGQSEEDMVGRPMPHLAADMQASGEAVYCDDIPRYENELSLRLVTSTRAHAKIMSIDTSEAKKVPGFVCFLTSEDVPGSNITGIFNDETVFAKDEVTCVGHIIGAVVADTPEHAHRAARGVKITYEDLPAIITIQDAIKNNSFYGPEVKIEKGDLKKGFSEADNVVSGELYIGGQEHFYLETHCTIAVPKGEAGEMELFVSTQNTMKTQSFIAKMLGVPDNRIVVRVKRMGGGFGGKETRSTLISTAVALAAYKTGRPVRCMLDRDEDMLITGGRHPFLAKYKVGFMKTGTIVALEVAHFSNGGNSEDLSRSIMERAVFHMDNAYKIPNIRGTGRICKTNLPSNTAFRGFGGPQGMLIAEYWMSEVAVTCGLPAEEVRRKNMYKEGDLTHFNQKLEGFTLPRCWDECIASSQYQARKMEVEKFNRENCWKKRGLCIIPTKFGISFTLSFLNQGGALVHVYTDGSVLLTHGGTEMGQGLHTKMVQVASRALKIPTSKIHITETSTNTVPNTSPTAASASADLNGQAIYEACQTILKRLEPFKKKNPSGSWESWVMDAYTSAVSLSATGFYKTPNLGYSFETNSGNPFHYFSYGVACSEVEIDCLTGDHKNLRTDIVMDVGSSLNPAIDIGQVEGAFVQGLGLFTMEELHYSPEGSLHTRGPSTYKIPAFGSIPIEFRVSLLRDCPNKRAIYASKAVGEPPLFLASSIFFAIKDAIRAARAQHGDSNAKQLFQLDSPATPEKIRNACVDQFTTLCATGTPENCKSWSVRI

C=C
Km (Cytochrome P450 2E1 (Cyp2e1, Mus musculus, UniProt Q05421); substrate, headspace gas uptake, refers to: ethylene oxide formation; B6C3F1 mouse, pooled liver microsomes): 9.3 ± 3 µM

O[C@@H](CS)[C@@H](O)CS (racemic)
Amax (CYP2E1; spectrophotometric titration, refers to: bis-thiolate complex; enzyme-enriched human liver microsomes; 375 pmol enzyme per mg protein): 0.39 µM

CC1=N[C@]2(C(=O)CO)[C@@H](C[C@H]3[C@@H]4C[C@@H](O)C5=CC(=O)C=C[C@]5(C)[C@H]4[C@@H](O)C[C@@]32C)O1
IC50 (CYP2C9; pooled human liver microsomes; 30 min preincubation, added: diclofenac probe and NADPH): > 50 µM

Cc1ccccc1C(=O)Nc1ccc(C(=O)Nc2ccc(Cl)cc2C(=O)CCC(=O)O)c(C)c1
IC50 (SLC22A8; estrone 3-sulfate transport; HEK293 overexpressing OAT3): 0.425 µM

O=C1C[C@@H](c2ccc(O)cc2)Oc2cc(O)cc(O)c21
glucuronidation rate ratio (UDP-glucuronosyltransferases, rat; Wistar rat, colon microsomes; 10 µM, 30 min, pH 7.4; baseline: jejunum over colon microsomes): ~2.5

CCCCCCCCC=O
Ki (CYP2E1; competitive inhibitor; human liver S9; added: p-nitrophenol substrate): 8 ± 1 µM

O=c1[nH]c(=O)c(Cc2cccc(C(F)(F)F)c2)c([C@H]2CC[C@H](c3ccccc3)CC2)[nH]1
AUC(0-last) (CYP2C19 (Homo sapiens, UniProt P33261); human, plasma; oral, 600 mg, day 1, geometric mean): 6140 ng·h/mL

N=C(N)NC(=N)NC1Cc2ccccc2C1
IC50 (SLC22A2; transporter uptake, inhibitor, radiometric): 53.4 µM and 53 µM

O=C(O[C@H]1[C@@H]2C=CO[C@@H](O[C@@H]3O[C@H](CO)[C@@H](O)[C@H](O)[C@H]3O)[C@@H]2[C@@]2(CO)O[C@@H]12)c1ccc(O)cc1
intrinsic clearance (SLC22A8; uptake, substrate; HEK293 overexpressing SLC22A8; 10 min): 1.11 µL/min

Cc1noc(C)c1Cn1cc(N2C(=O)CN(Cc3cccc(O)c3)C2=O)cn1
inhibition (CYP2C9; enzyme activity, inhibitor, fluorescence; Sf9; 10 µM): 34%

O=C(O)CCCCCCCCCCCCC(=O)O
trough plasma concentration (OATP1B1; human, plasma; concentration not given, 12 h after first cyclosporine dose, genotype CC, added: oral cyclosporine plus pravastatin): 91.3 nM

COc1cc(CCc2cnc3ccn(S(=O)(=O)c4c[nH]cn4)c3n2)cc(OC)c1
inhibition (CYP2C9; enzyme activity, inhibitor; human, liver microsomes; 10 µM, 20 min, pH 7.4): 97%

N=C(N)NC(=N)NCC(c1ccccc1)c1ccccc1
IC50 (SLC22A1 (Homo sapiens, UniProt O15245); transporter uptake, inhibitor, radiometric): 85.5 µM and 86 µM

O=C(O)c1cc(/N=N/c2ccc(S(=O)(=O)Nc3ccccn3)cc2)ccc1O
Cmax fold increase (Abcg2; substrate; rat, plasma; oral, dose not given, added: elacridar constant infusion; baseline: with over without elacridar): 2 fold

CCCCCC=O
Ki (CYP2E1; competitive inhibitor; human liver S9; added: p-nitrophenol substrate): 26 ± 2 µM

O=C(/C=C/c1ccc(O)c2c1[C@H](C(=O)O[C@H](Cc1ccc(O)c(O)c1)C(=O)O)[C@@H](c1ccc(O)c(O)c1)O2)O[C@H](Cc1ccc(O)c(O)c1)C(=O)O
inhibition (SLC22A8; transporter uptake, inhibitor; HEK293; 100 µM): > 50%

CCCCCCCC/C=C/C=O
Ki (CYP2E1; enzyme activity, competitive inhibitor; human liver S9; added: p-nitrophenol substrate): 3.4 ± 0.1 µM

CN1Cc2c(Cl)cc(Cl)cc2[C@H](c2cccc(S(=O)(=O)NCCOCCOCCNC(=O)NCCCCNC(=O)NCCOCCOCCNS(=O)(=O)c3cccc([C@@H]4CN(C)Cc5c(Cl)cc(Cl)cc54)c3)c2)C1
IC50 (human CYP3A4/5; enzyme activity, inhibitor, refers to: oxidized nifedipine; human liver microsomes; 10 min, added: nifedipine 25 µM): 0.68 ± 0.157 µM

N=C(NN)Nc1ccc(C(=O)O)cc1
uptake (SLC22A2; HEK293 expressing SLC22A2; 100 µM, 10 min; baseline: parent compound without biguanide): decreased

COc1cc(OC)c(Cl)c(CCc2cnc3ccn(S(=O)(=O)c4c[nH]cn4)c3n2)c1Cl
inhibition (CYP2C9; enzyme activity, inhibitor; human, liver microsomes; 10 µM, 20 min, pH 7.4): 99%

O=C(O)CCCCCCCCCCCCCCC(=O)O
trough plasma concentration (OATP1B1; human, plasma; concentration not given, 12 h after first cyclosporine dose, genotype TT, added: oral cyclosporine plus pravastatin): 84.6 nM

O=c1[nH]c(=O)c2[nH]cnc2[nH]1
dehydrogenase activity (Xdh (Mus musculus, UniProt Q00519); substrate; LCN mouse liver cytosol; 50 µM, pH 7.8): 1.72 ± 0.37 nmol/min/mg protein

O=C(O)c1cc(/N=N/c2ccc(S(=O)(=O)Nc3ccccn3)cc2)ccc1O
AUC(0-t) (Abcg2; substrate; Sprague-Dawley rat, male, plasma; oral, 2 mg/kg, added: 3,6,3',4'-tetramethoxyflavone 5 mg/kg): 319 ± 25 ng·h/mL

CC[C@H](C)[C@H](NC(=O)[C@H](CCC(=O)O)NC(=O)[C@H](CO)NC(=O)[C@@H](NC(=O)[C@@H](N)CO)C(C)C)C(=O)N[C@@H](CCC(N)=O)C(=O)N[C@@H](CC(C)C)C(=O)N[C@@H](CCSC)C(=O)N[C@@H](Cc1cnc[nH]1)C(=O)N[C@@H](CC(N)=O)C(=O)N[C@@H](CC(C)C)C(=O)NCC(=O)N[C@@H](CCCCN)C(=O)N[C@@H](Cc1cnc[nH]1)C(=O)N[C@@H](CC(C)C)C(=O)N[C@@H](CC(N)=O)C(=O)N[C@@H](CO)C(=O)N[C@@H](CCSC)C(=O)N[C@@H](CCC(=O)O)C(=O)N[C@@H](CCCN=C(N)N)C(=O)N[C@H](C(=O)N[C@@H](CCC(=O)O)C(=O)N[C@@H](Cc1c[nH]c2ccccc12)C(=O)N[C@@H](CC(C)C)C(=O)N[C@@H](CCCN=C(N)N)C(=O)N[C@@H](CCCCN)C(=O)N[C@@H](CCCCN)C(=O)N[C@@H](CC(C)C)C(=O)N[C@@H](CCC(N)=O)C(=O)N[C@@H](CC(=O)O)C(=O)N[C@H](C(=O)N[C@@H](Cc1cnc[nH]1)C(=O)N[C@@H](CC(N)=O)C(=O)N[C@@H](Cc1ccccc1)C(=O)O)C(C)C)C(C)C
remaining intact compound (chymotrypsin (bovine pancreas); proteolytic degradation, HPLC-UV; 0.5 mg/mL, 0.25 h, pH 6.5, 37 °C, added: chymotrypsin with soybean trypsin inhibitor): 59%

Cc1coc2c1CC[C@@H](C)C2
spectrally active P450 remaining (Cytochrome P450 2A6 (CYP2A6, Homo sapiens, UniProt P11509); inactivator, reduced CO spectrum; reconstituted enzyme; 20 µM, 10 min, 30 °C; baseline: without NADPH): 36 ± 4.6%

Repeated from above:
CN1Cc2c(Cl)cc(Cl)cc2[C@H](c2cccc(S(=O)(=O)NCCOCCOCCNC(=O)NCCCCNC(=O)NCCOCCOCCNS(=O)(=O)c3cccc([C@@H]4CN(C)Cc5c(Cl)cc(Cl)cc54)c3)c2)C1
IC50 (human CYP3A4/5; enzyme activity, inhibitor, refers to: oxidized nifedipine; human liver microsomes; 10 min, added: nifedipine 25 µM): 0.68 ± 0.157 µM

O=C(O)c1cc(/N=N/c2ccc(S(=O)(=O)Nc3ccccn3)cc2)ccc1O
AUC(0-t) (Abcg2; substrate; Sprague-Dawley rat, male, plasma; oral, 2 mg/kg, added: 3,6,3',4'-tetramethoxyflavone 5 mg/kg): 319 ± 25 ng·h/mL

Cc1noc(C)c1Cn1cc(N2C(=O)CN(Cc3cccc(O)c3)C2=O)cn1
inhibition (CYP2C9; enzyme activity, inhibitor, fluorescence; Sf9; 10 µM): 34%

O=C(/C=C/c1ccc(O)c2c1[C@H](C(=O)O[C@H](Cc1ccc(O)c(O)c1)C(=O)O)[C@@H](c1ccc(O)c(O)c1)O2)O[C@H](Cc1ccc(O)c(O)c1)C(=O)O
inhibition (SLC22A8; transporter uptake, inhibitor; HEK293; 100 µM): > 50%
